# Results pooled from the literature.
# Sequence of UniProt P16152 (whole entry, looked up): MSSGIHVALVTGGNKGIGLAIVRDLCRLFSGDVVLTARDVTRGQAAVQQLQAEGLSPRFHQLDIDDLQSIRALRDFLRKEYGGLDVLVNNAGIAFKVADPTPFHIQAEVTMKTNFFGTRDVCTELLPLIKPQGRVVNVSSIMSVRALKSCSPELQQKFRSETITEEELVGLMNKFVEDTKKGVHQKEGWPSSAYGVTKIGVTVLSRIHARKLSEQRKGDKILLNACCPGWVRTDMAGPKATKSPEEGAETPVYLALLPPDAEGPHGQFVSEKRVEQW
# Sequence of UniProt P30291 (whole entry, looked up): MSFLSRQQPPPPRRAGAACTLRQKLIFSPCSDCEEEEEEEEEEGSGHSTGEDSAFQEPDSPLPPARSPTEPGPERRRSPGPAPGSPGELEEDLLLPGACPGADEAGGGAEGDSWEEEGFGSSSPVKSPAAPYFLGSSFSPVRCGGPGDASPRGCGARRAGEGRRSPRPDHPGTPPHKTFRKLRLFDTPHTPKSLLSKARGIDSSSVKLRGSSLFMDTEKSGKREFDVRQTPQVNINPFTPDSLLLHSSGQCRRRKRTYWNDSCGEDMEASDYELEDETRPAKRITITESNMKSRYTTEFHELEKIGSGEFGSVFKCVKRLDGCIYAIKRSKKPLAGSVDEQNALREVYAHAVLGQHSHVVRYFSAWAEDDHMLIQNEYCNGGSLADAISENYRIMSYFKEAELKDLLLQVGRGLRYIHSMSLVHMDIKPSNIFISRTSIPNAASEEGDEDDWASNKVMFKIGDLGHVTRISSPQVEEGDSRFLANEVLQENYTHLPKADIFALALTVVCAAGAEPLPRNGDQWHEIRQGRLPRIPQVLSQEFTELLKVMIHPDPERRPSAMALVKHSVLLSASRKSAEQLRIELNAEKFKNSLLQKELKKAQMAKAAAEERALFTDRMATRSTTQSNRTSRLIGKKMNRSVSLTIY
Compound,target or system,assay,test system,setting,scale,quantity,result
C[C@H]1CN(c2n[nH]c3nc(N[C@H]4CC[C@H](NS(=O)(=O)CCC(F)(F)F)CC4)ncc23)CCO1,"CBR1 (Homo sapiens, UniProt P16152)","inhibitor, Kinobeads competition profiling",,0.8 µM,baseline: vehicle,relative abundance,1
O=S(=O)(Nc1ccccc1)c1ccc(NC(=S)Nc2ccccc2)cc1,,measured: Glu,"male mouse, blood","oral, 20 mg/kg daily, 14 days",,blood chemistry level,222 mg/dL
O=C(c1ccc(F)c(F)c1Nc1ccc(I)cc1F)N1CC(O)([C@@H]2CCCCN2)C1,,,human patients,"oral, 1 mg/kg, age ≥18 years",,treatment-related AE causing withdrawal,0%
CO[C@H]1C[C@@H]2CC[C@@H](C)[C@@](O)(O2)C(=O)C(=O)N2CCCC[C@H]2C(=O)O[C@H]([C@H](C)C[C@@H]2CC[C@@H](OC(=O)NCCOCCOCCOCCOCCOCCOCCOCCOCCC(=O)N3CCc4cc(Cn5nc(-c6ccc7oc(N)nc7c6)c6c(N)ncnc65)ccc4C3)[C@H](OC)C2)C[C@@H](O)[C@H](C)/C=C(\C)[C@@H](O)[C@@H](OC)C(=O)[C@H](C)C[C@H](C)/C=C/C=C/C=C/1C,,phase 1 dose escalation,advanced solid tumour patients,"intravenous, 6 mg weekly, any grade",,any TEAE incidence,100%
COc1ccc(N2C(=O)N(c3c(C)cccc3Cl)Cc3cnc(Nc4ccc(C5CCN(C)CC5)cc4OC)nc32)nc1,"WEE1 (Homo sapiens, UniProt P30291)",kinase activity,,0.5 µM,,inhibition,25%
COc1cccc(-c2n[nH]c(SCc3ccccn3)n2)c1OC,Salmonella typhimurium,"Ames test, plate incorporation",TA98,"2.0 mg/plate, without S9",,revertant colonies per plate,18
COc1cc2c(Oc3ccc4[nH]c(C)cc4c3F)ccnc2cc1OCC1(N)CC1,,,paediatric recurrent refractory sarcoma,12 mg,,grade 1 or 2 Appendicitis,0%
Oc1ccc(Cl)c(-c2cc(Cl)c(Cl)cc2Cl)c1Cl,,enantioselective gas chromatography,racemized sample,column temperature 160 °C,,enantiomeric fraction,0.5
CN1CC[C@@H](c2c(O)cc(O)c3c(=O)cc(-c4ccc(C(F)(F)F)cc4Cl)oc23)[C@@H]1CO,,measured: Hypoalbuminemia,relapsed B-cell malignancies,"oral, 200 mg, grade 3-4, intermittent dosing",,patients with adverse event,0%
C[C@]1(O)C[C@@](N)(c2ccc(-c3nc4n(c3-c3ccccc3)COc3ccncc3-4)cc2)C1,,,"human, advanced or metastatic solid tumours","24 mg intermittent, phase I dose escalation",,patients with Hyperglycemia TEAE,25%
O=C1Nc2cc3[nH]nc(-c4ccncc4)c3cc2CN1Cc1ccccc1,,CTCAE v4.03,advanced solid tumour patients,"intravenous, 7.2 mg/kg, schedules 1/2",,patients with decreased appetite,20%
COc1ncnn2ccc(-c3cnc4nc(C)n(Cc5nnc([C@@H](C)F)o5)c4c3)c12,,,human,"oral, dose not given, grade 2",,patients with hypotension,14.3%
CC(C)C[C@H](NC(=O)C[C@H](O)[C@H](CC(C)C)NC(=O)[C@H](Cc1c[nH]cn1)NC(=O)CNC(=O)[C@@H](NC(=O)[C@H](C)NC(=O)[C@H](Cc1c[nH]c2ccccc12)NC(=O)[C@H](CCC(N)=O)NC(=O)[C@@H](Cc1ccccc1)NC(=O)CCNC(=O)CCSc1nnc(NCCC(=O)NCCC(=O)NCCCC[C@H](NC(=O)N[C@@H](CCC(=O)O)C(=O)O)C(=O)O)c2c1CCC1C(CC2)C1COC(=O)NCCNC(=O)CC[C@H](C(=O)O)N1CCN(CC(=O)O)CCN(CC(=O)O)CC1)C(C)C)C(N)=O (stereo partly shown) [gallium-68 labelled],,,"athymic NMRI nude mice, 22Rv1 xenograft, tumour","intravenous, 2 h, added: PMPA 552 nmol co-injected",,tissue uptake,0.37 %ID/g
